Measured values of several laboratories.
Lines come from different studies, so protocols differ. Several values in a cell are separate wells, animals, samples, runs or records. ± marks the error that the study gave.

CN1Cc2cc(Cl)ccc2-n2c(nnc2C2CCN(c3cccc([18F])n3)CC2)C1 — tissue uptake (C57BL/6 mouse male, brain; intravenous, dose not given, 30 min, with: blocking agent 10 mg/kg): 0.78 ± 0.03 %ID/g
CCCCCCCCCCCCCCCC(=O)NCCCC[C@H](NC(=O)[C@H](CCC(=O)O)NC(=O)[C@H](Cc1ccc(O)cc1)NC(=O)[C@H](CCC(=O)O)NC(=O)COCC(=O)NCCCOCCOCCOCCCNC(=O)[C@H](Cc1ccccc1)NC(=O)[C@H](CC(N)=O)NC(=O)[C@H](Cc1c[nH]cn1)NC(=O)[C@@H](NC(=O)[C@H](CC(=O)O)NC(=O)[C@H](CCC(N)=O)NC(=O)[C@H](CC(C)C)NC(=O)[C@H](CCCCN)NC(=O)[C@H](CCCCN)NC(=O)[C@H](CCCNC(=N)N)NC(=O)[C@H](CC(C)C)NC(=O)[C@H](Cc1c[nH]c2ccccc12)NC(=O)[C@H](CCC(=O)O)NC(=O)[C@@H](NC(=O)[C@H](CCCNC(=N)N)NC(=O)[C@H](CCC(=O)O)NC(=O)[C@H](CCSC)NC(=O)[C@H](CO)NC(=O)[C@H](CC(N)=O)NC(=O)[C@H](CC(C)C)NC(=O)[C@H](Cc1c[nH]cn1)NC(=O)[C@H](CCCCN)NC(=O)CNC(=O)[C@H](CC(C)C)NC(=O)[C@H](CC(N)=O)NC(=O)[C@H](Cc1c[nH]cn1)NC(=O)[C@H](CCSC)NC(=O)[C@H](CC(C)C)NC(=O)[C@H](CCC(N)=O)NC(=O)[C@@H](NC(=O)[C@H](CCC(=O)O)NC(=O)[C@H](CO)NC(=O)[C@@H](NC(=O)[C@@H](N)CO)C(C)C)[C@@H](C)CC)C(C)C)C(C)C)C(=O)N[C@@H](CCC(=O)O)C(=O)N[C@@H](Cc1ccc(O)cc1)C(=O)N[C@@H](CCC(=O)O)C(N)=O — plasma concentration (ELISA; female CD-1 mice, blood plasma; subcutaneous, 10 nmol/kg, 7 h): 2.08 nM
N=C(N)NCCC[C@@H](NC(=O)[C@H](N)Cc1c[nH]c2ccccc12)C(=O)N[C@H](CCCCN)C(=O)N[C@H](Cc1c[nH]c2ccccc12)C(=O)N[C@H](CCCNC(=N)N)C(=O)N[C@H](CCCCN)C(=O)N[C@H](Cc1c[nH]c2ccccc12)C(=O)N[C@H](CCCNC(=N)N)C(=O)N[C@H](CCCCN)C(=O)N[C@H](Cc1c[nH]c2ccccc12)C(=O)N[C@H](CCCNC(=N)N)C(=O)N[C@H](CCCCN)C(N)=O — NGAL level (mouse, serum; 20 mg/kg): 41.6 ng/mL
CSCC[C@H](NC(=O)[C@@H](NC(=O)[C@H](CC(C)C)NC(=O)[C@@H](NC(=O)[C@H](Cc1c[nH]cn1)NC(=O)CCCCCNC(=O)[C@H](CCCNC(=N)N)NC(=O)[C@H](CCCNC(=N)N)NC(=O)[C@H](CCCNC(=N)N)NC(=O)[C@H](CCC(N)=O)NC(=O)[C@H](CCCNC(=N)N)NC(=O)[C@H](CCCNC(=N)N)NC(=O)[C@H](CCCCN)NC(=O)[C@H](CCCCN)NC(=O)[C@H](CCCNC(=N)N)NC(=O)CNC(=O)[C@@H](N)Cc1ccc(O)cc1)C(C)C)C(C)C)C(=O)N[C@@H](CS)C(=O)N[C@@H](C)C(=O)N[C@H](C(N)=O)[C@@H](C)O — serum Phosphorus (C57BL/6J mice; Alzet osmotic pump, 3 mg/kg, 8 weeks): 6.1 mg/dL and 7.1 mg/dL
CC(C)(CCCC/C=C/CCCCCC(C)(C)C(=O)O)C(=O)O — plasma concentration (ICR mice, both sexes; oral, dose not given, 0.5 h): 20300 ng/mL
C[C@H](O)[C@@H](NC(=O)[C@H]1CCCN1C(=O)[C@@H](CCCCN)NC(=O)[C@@H](CO)NC(=O)[C@@H](Cc1ccc(O)cc1)NC(=O)[C@@H](CC(N)=O)NC(=O)CCOCCOCCOCCNC(=O)CN1CCN(CC(=O)O)CCN(CC(=O)O)CCN(CC(=O)O)CC1)C(=O)N[C@H](CC(=O)O)C(=O)N[C@H](CCCNC(=N)N)C(=O)N[C@H](CCC(N)=O)C(=O)N[C@H](Cc1ccc(O)cc1)C(=O)N[C@H](Cc1c[nH]cn1)C(=O)N[C@H](Cc1ccccc1)C(N)=O [copper-64 labelled] — tissue uptake (C57BL/6J mice, spleen; intravenous, 1.85 MBq, 1 h, radiolabelled): 0.17 ± 0.01 %ID/g
N#[11C]c1ccc(-c2csc(NN=C3CCCC3)n2)cc1 — uptake in small intestine with contents (C57BL/6 mouse, male; intravenous, 3 MBq, 60 min): 26.4 ± 3.43 %ID/g
CC[C@H](C)[C@H](NC(=O)[C@H](CCCCN)NC(=O)CNC(=O)[C@H](CC(C)C)NC(=O)[C@H](Cc1ccccc1)NC(=O)[C@H](CCCCN)NC(=O)[C@H](CO)NC(=O)[C@H](Cc1ccccc1)NC(=O)[C@H](Cc1c[nH]c2ccccc12)NC(=O)[C@H](CCC(N)=O)NC(=O)[C@@H](NC(=O)[C@H](Cc1ccccc1)NC(=O)CCCCCNC(=O)CN1CCN(CC(=O)O)CCN(CC(=O)O)CCN(CC(=O)O)CC1)C(C)C)C(=O)N[C@@H](CCC(=O)O)C(=O)N1CCC[C@H]1C(=O)N[C@@H](CC(=O)O)C(=O)N[C@H](C(=O)N[C@@H](CO)C(=O)N[C@@H](CCC(N)=O)C(=O)N[C@H](C(=O)N[C@@H](CCC(N)=O)C(=O)N[C@@H](CC(=O)O)C(=O)N1CCC[C@H]1C(=O)N[C@@H](CC(N)=O)C(=O)N[C@@H](CC(=O)O)C(=O)N[C@@H](CCC(N)=O)C(=O)N[C@@H](Cc1ccc(O)cc1)C(=O)N[C@@H](CCC(=O)O)C(=O)N1CCC[C@H]1C(=O)N[C@@H](Cc1ccccc1)C(=O)O)C(C)C)C(C)C [copper-64 labelled] — tissue uptake (C57BL/6 mice, male, tumour-free, spleen; 2 h): 2.22 ± 0.3 %ID/g
O=C1NC2(CC2)COc2ncc(F)cc2[C@H]2COCCN2c2ccn3ncc1c3n2 — lymphocyte percentage (Sprague-Dawley rat, female, blood; oral, 2.5 mg/kg/day, 4 weeks, end of recovery, subacute toxicity): 80.3 ± 5.1%
CCCC[C@H]1C(=O)N(C)[C@@H](CCCC)C(=O)N[C@@H](CCCNC(=O)CN2CCN(CC(=O)O)CCN(CC(=O)O)CCN(CC(=O)O)CC2)C(=O)N[C@H](C(=O)NCC(N)=O)CSCC(=O)N[C@@H](Cc2ccc(O)cc2)C(=O)N(C)[C@@H](C)C(=O)N[C@@H](CC(N)=O)C(=O)N2CCC[C@H]2C(=O)N[C@@H](Cc2c[nH]cn2)C(=O)N[C@@H](CC(C)C)C(=O)N(C)CC(=O)N[C@@H](Cc2c[nH]c3ccccc23)C(=O)N[C@@H](CO)C(=O)N[C@@H](Cc2c[nH]c3ccccc23)C(=O)N1C [gallium-68 labelled] — tissue-to-tissue ratio (NOD/SCID mice, CHO-hPD-L1 xenograft, tumour over liver; iv, dose not given, 120 min; reference: tumour over liver): 2.1 ± 1.18
C/C(=N\OCCCN1CCCCC1)c1ccc(C(F)(F)F)cc1 — brain concentration (C57BL/6 mouse, brain; oral, 10 mg/kg, 0.5 h): 8580 ± 1630 ng/g
CC[C@H](C)[C@@H]1NC(=O)[C@H](Cc2ccc(O)cc2)NC(=O)CCCSC[C@@H](C(=O)N(CC(=O)N[C@@H](CC(C)C)C(=O)NCC(N)=O)Cc2ccc(F)cc2)NC(=O)[C@H](CC(N)=O)NC(=O)[C@H](CCC(N)=O)NC1=O — deaths (human; intranasal, 200 µg repeated doses): 0%
CCCC[C@@H]1NC(=O)[C@H](Cc2ccc(O)cc2)NC(=O)[C@@H]2CCCN2C(=O)[C@H](CC(=O)O)NC(=O)[C@H](C)NC(=O)[C@H](Cc2ccccc2)NC(=O)[C@@H]2CSCCC(=O)N3CN(CN(C3)C(=O)CCSC[C@@H](C(=O)N[C@@H](C)C(N)=O)NC1=O)C(=O)CCSC[C@H](NC(C)=O)C(=O)N[C@@H](CC(C)(C)C)C(=O)N1CCC[C@H]1C(=O)N[C@@H](CCC(=O)O)C(=O)N[C@H](CCCCNC(=O)CCc1cn(CCOCCOCCOCCN(CCOCCOCCOCCC(=O)N[C@H]3CSCCC(=O)N4CN5CN(C4)C(=O)CCSC[C@H](NC(=O)[C@@H](CC(=O)O)NC(=O)[C@H](Cc4cccc6ccccc46)NC(=O)[C@@H]4CCCN4C3=O)C(=O)N[C@@H](CCSC)C(=O)N[C@@H](CCCCNC(=N)N)C(=O)N[C@@H](CC(=O)O)C(=O)N[C@@H](Cc3c[nH]c4ccccc34)C(=O)N[C@@H](CO)C(=O)N[C@@H]([C@@H](C)O)C(=O)N3CCC[C@H]3C(=O)N3C[C@H](O)C[C@H]3C(=O)N[C@@H](Cc3c[nH]c4ccccc34)C(=O)N[C@H](C(N)=O)CSCCC5=O)CCOCCOCCOCCn3cc(CCC(=O)NCCCC[C@H]4NC(=O)[C@H](CCC(=O)O)NC(=O)[C@@H]5CCCN5C(=O)[C@H](CC(C)(C)C)NC(=O)[C@@H](NC(C)=O)CSCCC(=O)N5CN6CN(C5)C(=O)CCSC[C@H](NC(=O)[C@H](Cc5ccc(O)cc5)NC(=O)[C@@H]5CCCN5C4=O)C(=O)N[C@@H](Cc4ccccc4)C(=O)N[C@@H](C)C(=O)N[C@@H](CC(=O)O)C(=O)N4CCC[C@H]4C(=O)N[C@@H](Cc4ccc(O)cc4)C(=O)N[C@@H](CCCC)C(=O)N[C@H](C(=O)N[C@@H](C)C(N)=O)CSCCC6=O)nn3)nn1)C(=O)N1CCC[C@H]1C(=O)N[C@@H](Cc1ccc(O)cc1)C(=O)N2 — Vdss (CD-1 mouse): 2.3 ± 0.6 L/kg

Some of these lines once more:
CN1Cc2cc(Cl)ccc2-n2c(nnc2C2CCN(c3cccc([18F])n3)CC2)C1 — tissue uptake (C57BL/6 mouse male, brain; intravenous, dose not given, 30 min, with: blocking agent 10 mg/kg): 0.78 ± 0.03 %ID/g
N=C(N)NCCC[C@@H](NC(=O)[C@H](N)Cc1c[nH]c2ccccc12)C(=O)N[C@H](CCCCN)C(=O)N[C@H](Cc1c[nH]c2ccccc12)C(=O)N[C@H](CCCNC(=N)N)C(=O)N[C@H](CCCCN)C(=O)N[C@H](Cc1c[nH]c2ccccc12)C(=O)N[C@H](CCCNC(=N)N)C(=O)N[C@H](CCCCN)C(=O)N[C@H](Cc1c[nH]c2ccccc12)C(=O)N[C@H](CCCNC(=N)N)C(=O)N[C@H](CCCCN)C(N)=O — NGAL level (mouse, serum; 20 mg/kg): 41.6 ng/mL
